Assay results pooled from the literature.
Each line is one published result; not all experiments were run side by side. ± marks the error that the study gave.
Target: Delta-type opioid receptor (OPRD1, Homo sapiens, UniProt P41143)
Sequence of UniProt P41143 (whole entry, looked up): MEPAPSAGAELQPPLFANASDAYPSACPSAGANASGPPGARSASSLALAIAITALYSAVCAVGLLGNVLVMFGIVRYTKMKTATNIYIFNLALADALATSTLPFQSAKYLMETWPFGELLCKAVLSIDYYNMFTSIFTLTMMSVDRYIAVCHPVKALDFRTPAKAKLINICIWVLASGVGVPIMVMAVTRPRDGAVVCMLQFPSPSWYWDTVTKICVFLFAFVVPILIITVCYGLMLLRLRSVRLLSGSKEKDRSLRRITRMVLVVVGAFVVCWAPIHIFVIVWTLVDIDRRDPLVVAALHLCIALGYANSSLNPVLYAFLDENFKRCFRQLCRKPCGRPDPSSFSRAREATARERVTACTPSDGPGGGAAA

Compound | assay | system | conditions | scale | endpoint | value
C[C@H]1COCCN1c1nc(NCc2cccnc2C(F)(F)F)c2cccnc2n1 | binding | – | CEREP panel | – | IC50 | 11.8 µM
CC(=O)Nc1ccc(C(=O)N[C@H]2CC[C@@]3(O)[C@H]4Cc5ccc(O)c6c5[C@@]3(CCN4CC3CC3)[C@H]2O6)s1.Cl | radioligand binding | CHO membranes | – | baseline: Ki µ over Ki δ | selectivity ratio | 12.5
CN1CC[C@]23c4c5ccc(O)c4O[C@H]2[C@@H](OS(=O)(=O)O)C=C[C@H]3[C@H]1C5 | – | – | – | – | Emax | 14.7 ± 1.9%
Cl.O=C(N[C@H]1CC[C@@]2(O)[C@H]3Cc4ccc(O)c5c4[C@@]2(CCN3CC2CC2)[C@H]1O5)c1ccc(Cl)s1 | radioligand binding | CHO membranes | – | baseline: Ki µ over Ki δ | selectivity ratio | 104
O=c1ccc2ccccc2o1 | radioligand binding, agonist | – | 10 µM | – | inhibition | -10.5%
Cl.O=C(N[C@H]1CC[C@@]2(O)[C@H]3Cc4ccc(O)c5c4[C@@]2(CCN3CC2CC2)[C@H]1O5)c1ccc([N+](=O)[O-])s1 | radioligand binding | CHO membranes | – | baseline: Ki µ over Ki δ | selectivity ratio | 19.7
CN1CCN(c2cc(-c3ccncc3)c(-c3ccc4ccccc4c3)nn2)CC1 | agonist, FLIPR | – | 12.5 µM | – | activation | -4.2%
Cl.NC(=O)c1ccc(C(=O)N[C@H]2CC[C@@]3(O)[C@H]4Cc5ccc(O)c6c5[C@@]3(CCN4CC3CC3)[C@H]2O6)s1 | radioligand binding | CHO membranes | – | baseline: Ki µ over Ki δ | selectivity ratio | 88.2
O=C(Nc1cccnn1)N1CCC(=Cc2cccc(Oc3ccc(C(F)(F)F)cn3)c2)CC1 | radioligand binding, inhibitor | – | 50 µM, human, added: [3H]naltrindole | – | inhibition | 31%
CC(C)C[C@H]1C(=O)N2CCC[C@H]2[C@]2(O)O[C@](NC(=O)[C@@H]3C=C4c5cccc6[nH]c(Br)c(c56)C[C@H]4[N+](C)(C)C3)(C(C)C)C(=O)N12.[I-] | – | – | 100 nM, added: [3H]DPDPE | – | radioligand binding inhibition | no effect
O=C(Nc1cnccc1Cl)N1CCN(Cc2ccc3c(c2)OC(F)(F)O3)CC1 | radioligand binding, inhibitor | – | 10 µM, human, added: [3H]naltrindole | – | inhibition | 3%
Cn1cccc1-c1cccnc1 | binding | – | 50 µM | – | inhibition | -1.54%

For quick reference, copied from above:
Compound | assay | system | conditions | scale | endpoint | value
CC(C)C[C@H]1C(=O)N2CCC[C@H]2[C@]2(O)O[C@](NC(=O)[C@@H]3C=C4c5cccc6[nH]c(Br)c(c56)C[C@H]4[N+](C)(C)C3)(C(C)C)C(=O)N12.[I-] | – | – | 100 nM, added: [3H]DPDPE | – | radioligand binding inhibition | no effect
O=C(Nc1cnccc1Cl)N1CCN(Cc2ccc3c(c2)OC(F)(F)O3)CC1 | radioligand binding, inhibitor | – | 10 µM, human, added: [3H]naltrindole | – | inhibition | 3%
